Measured values of several laboratories.
Numbers after ± are the reported error.

For `CC[C@H](C)[C@H](NC(=O)[C@H](CCCNC(=N)N)NC(=O)[C@H](CCC(N)=O)NC(=O)[C@H](CC(=O)O)NC(=O)[C@H](CC(C)C)NC(=O)[C@H](CC(C)C)NC(=O)[C@H](CC(N)=O)NC(=O)[C@H](Cc1ccccc1)NC(=O)[C@H](CC(=O)O)NC(=O)[C@@H](NC(=O)[C@@H](NC(=O)[C@H](CC(N)=O)NC(=O)CNC(=O)[C@H](CO)NC(C)=O)C(C)C)[C@@H](C)CC)C(=O)N[C@H](C(=O)N[C@@H](Cc1c[nH]c2ccccc12)C(=O)N[C@@H](CCC(N)=O)C(=O)N[C@@H](CC(N)=O)C(=O)N[C@@H](Cc1c[nH]c2ccccc12)C(=O)N[C@@H](Cc1ccc(O)cc1)C(=O)N[C@@H](C)C(N)=O)[C@@H](C)CC`, “α4β7− CCR9− cells” read 27.8% (measured: HA-52 tetramer; antigen-experienced tetramer+ CD4 T cells, healthy adults, HLA-DRB1*0101; dose not given).
With `CC[C@H](C)[C@H](NC(=O)[C@H](CCC(=O)O)NC(=O)CNC(=O)[C@@H](NC(=O)[C@H](CC(C)C)NC(=O)[C@H](CC(C)C)NC(=O)[C@H](CC(C)C)NC(=O)[C@H](CC(C)C)NC(=O)[C@H](CS)NC(=O)[C@H](CO)NC(=O)[C@H](Cc1ccccc1)NC(=O)CNC(=O)[C@H](CCCNC(=N)N)NC(=O)[C@@H]1CCCN1C(=O)[C@H](C)NC(=O)[C@H](CCSC)NC(=O)CNC(=O)CNC(=O)[C@H](Cc1ccccc1)NC(=O)[C@H](CCCCN)NC(=O)[C@H](Cc1c(C)cc(O)cc1C)NC(=O)[C@H](N)CCCNC(=N)N)[C@@H](C)O)C(=O)N[C@@H](CC(=O)O)C(=O)N[C@@H](CC(C)C)C(=O)N1CCC[C@H]1C(=O)N[C@H](C(=O)N[C@@H](CCCCN)C(=O)N[C@@H](CCCNC(=N)N)C(=O)N[C@@H](CCCNC(=N)N)C(=O)N[C@@H](C)C(N)=O)C(C)C` the p-STAT3/STAT3 ratio was 137% (western blot; male transgenic AD mice, hippocampus; iv, 88.4 nmol/kg/day, 28 days; relative to: HNG plus SS-31).
For `CCCC[C@H](NC(=O)CNC(=O)CNC(=O)c1ccc(NN)nc1)C(=O)N[C@H]1CC(=O)NCCCC[C@@H](C(N)=O)NC(=O)[C@H](Cc2c[nH]c3ccccc23)NC(=O)[C@H](CCCNC(=N)N)NC(=O)[C@@H](Cc2ccccc2)NC(=O)[C@H](Cc2c[nH]cn2)NC1=O` [technetium-99m labelled], “tissue uptake ratio” read 5.26 (C57 mouse, B16/F1 melanoma-bearing; intravenous, 0.5 h; relative to: tumour over blood).
With `CC/C=C\C/C=C\C/C=C\C/C=C\C/C=C\C/C=C\CCC(=O)Nc1ccn(C2OC(CO)C(O)C2(F)F)c(=O)n1` (stereo not shown) the CC50 was 34.3 µM (CAKI-1; NCI60 screen).
The median survival of `C[C@@H](O)[C@H](NC(=O)[C@@H]1CSSC[C@H](NC(=O)[C@@H](Cc2ccccc2)NC(=O)CN2CCN(CC(N)=O)CCN(CC(N)=O)CCN(CC(N)=O)CC2)C(=O)N[C@@H](Cc2ccc(O)cc2)C(=O)N[C@H](Cc2c[nH]c3ccccc23)C(=O)N[C@@H](CCCCN)C(=O)N[C@@H]([C@@H](C)O)C(=O)N1)C(=O)O` [lead-212 labelled] is reported as 9.4 weeks (AR-42J tumour, mice; three x 10 µCi, three-week intervals).
With `N=C(N)NCCC[C@@H]1NC(=O)[C@H](CCCCNC(=O)CCOCCOCCOCCOCCNC(=O)CC[C@H](NC(=O)CCOCCOCCOCCOCCNC(=O)CC[C@H](NC(=O)CN2CCN(CC(=O)O)CCN(CC(=O)O)CCN(CC(=O)O)CC2)C(=O)NCCOCCOCCOCCOCCC(=O)N[C@@H](CCC(=O)NCCOCCOCCOCCOCCC(=O)NCCCC[C@@H]2NC(=O)[C@@H](Cc3ccccc3)NC(=O)[C@H](CC(=O)O)NC(=O)CNC(=O)[C@H](CCCNC(=N)N)NC2=O)C(=O)NCCOCCOCCOCCOCCC(=O)NCCCC[C@@H]2NC(=O)[C@@H](Cc3ccccc3)NC(=O)[C@H](CC(=O)O)NC(=O)CNC(=O)[C@H](CCCNC(=N)N)NC2=O)C(=O)NCCOCCOCCOCCOCCC(=O)NCCCC[C@@H]2NC(=O)[C@@H](Cc3ccccc3)NC(=O)[C@H](CC(=O)O)NC(=O)CNC(=O)[C@H](CCCNC(=N)N)NC2=O)NC(=O)[C@@H](Cc2ccccc2)NC(=O)[C@H](CC(=O)O)NC(=O)CNC1=O` [indium-111 labelled] the tissue uptake was 0.15 ± 0.01 %ID/g (female athymic nude mice, brain; intravenous, 3 µCi, 0.5 h, U-87 MG glioma xenograft).
`Cc1ccc(/C=C/C(=O)O)cc1-c1cc2c(cc1C)C(C)(C)CCC2(C)C` — result for “log2 fold change”: -0.27 (RNA sequencing, measured: Epha3 mRNA; rat, brain; dose not given, 24 h, single dose; relative to: vehicle).
Under “free tryptophan fraction”, `O=C(O)CCn1c(=O)oc2cc(Cl)c(Cl)cc21` is recorded as 60% (rat, plasma; dose not given).
For `CC[C@H](C)[C@H](NC(=O)[C@@H](NC(=O)[C@H](CC(=O)O)NC(C)=O)[C@@H](C)O)C(=O)N[C@@H](CCCNC(=N)N)C(=O)N[C@@H](CC(C)C)C(=O)N[C@@H](CC(C)C)C(=O)N[C@@H](Cc1ccccc1)C(=O)N[C@@H](CCC(N)=O)C(=O)N[C@@H](CC(C)C)C(=O)N[C@@H](CCSC)C(=O)N[C@@H](CCCNC(=N)N)C(=O)N1CCC[C@H]1C(=O)N1CCC[C@H]1C(=O)N[C@@H](CC(N)=O)C(=O)N[C@@H](CCSC)C(=O)N[C@H](C(=O)N1CCC[C@H]1C(=O)N[C@@H](C)C(=O)N[C@H](C(=O)N[C@@H](CC(N)=O)C(=O)N[C@@H](C)C(N)=O)C(C)C)[C@@H](C)O`, “α4β7+ CCR9+ cells” read 26.7% (measured: HA-02 tetramer; antigen-experienced tetramer+ CD4 T cells, healthy adults, HLA-DRB1*0101; dose not given).
With `COC[C@@H](NC(C)=O)C(=O)NCc1ccc(OCc2cccc(Cl)c2)cc1` the licking time was 41% (formalin test, phase I; mouse; ip, 5.0 mg/kg; relative to: vehicle).
The tracer uptake of `CN[C@](C)(C[18F])C(=O)O` is reported as 4.4 %ID/g (DU-145 tumour model; host not given, tumour; 30 min, tumour-bearing).
For `Cc1cc(O)cc(C)c1CC(N)C(=O)NC1CCNc2c1cc(Cc1ccccc1)cc2C(F)(F)F` (stereo not shown), antinociception read “inactive” (warm water tail withdrawal; male C57BL/6 mouse; ip, 1, 3.2, 10 mg/kg cumulative).
`CC(C)C[C@@H]1NC(=O)[C@H](C(C)C)NC(=O)[C@H](CO)NC(=O)CNC(=O)CNC(=O)[C@H](CCCNC(=N)N)NC(=O)[C@@H]2CCCN2C(=O)[C@@H](NC(=O)CC[C@H](NC(=O)c2ccc(N(C)Cc3cnc4nc(N)nc(N)c4n3)cc2)C(=O)O)C(C)(C)SSC[C@@H](C(=O)O)NC(=O)CNC(=O)[C@H]([C@@H](C)O)NC(=O)[C@H](C(C)C)NC1=O` — result for “spleen weight increase suppression”: 78% (rat adjuvant arthritis; intravenous, 5 mg/kg once daily, day 14; relative to: arthritis vehicle).

For quick reference, copied from above:
With `N=C(N)NCCC[C@@H]1NC(=O)[C@H](CCCCNC(=O)CCOCCOCCOCCOCCNC(=O)CC[C@H](NC(=O)CCOCCOCCOCCOCCNC(=O)CC[C@H](NC(=O)CN2CCN(CC(=O)O)CCN(CC(=O)O)CCN(CC(=O)O)CC2)C(=O)NCCOCCOCCOCCOCCC(=O)N[C@@H](CCC(=O)NCCOCCOCCOCCOCCC(=O)NCCCC[C@@H]2NC(=O)[C@@H](Cc3ccccc3)NC(=O)[C@H](CC(=O)O)NC(=O)CNC(=O)[C@H](CCCNC(=N)N)NC2=O)C(=O)NCCOCCOCCOCCOCCC(=O)NCCCC[C@@H]2NC(=O)[C@@H](Cc3ccccc3)NC(=O)[C@H](CC(=O)O)NC(=O)CNC(=O)[C@H](CCCNC(=N)N)NC2=O)C(=O)NCCOCCOCCOCCOCCC(=O)NCCCC[C@@H]2NC(=O)[C@@H](Cc3ccccc3)NC(=O)[C@H](CC(=O)O)NC(=O)CNC(=O)[C@H](CCCNC(=N)N)NC2=O)NC(=O)[C@@H](Cc2ccccc2)NC(=O)[C@H](CC(=O)O)NC(=O)CNC1=O` [indium-111 labelled] the tissue uptake was 0.15 ± 0.01 %ID/g (female athymic nude mice, brain; intravenous, 3 µCi, 0.5 h, U-87 MG glioma xenograft).
`Cc1ccc(/C=C/C(=O)O)cc1-c1cc2c(cc1C)C(C)(C)CCC2(C)C` — result for “log2 fold change”: -0.27 (RNA sequencing, measured: Epha3 mRNA; rat, brain; dose not given, 24 h, single dose; relative to: vehicle).
